Earlier results as cited in several papers.
Protocols differ between the studies behind these lines. Values joined by “and” are separate records of one study, mostly repeats; a detail may differ. ± gives the spread as reported.
CA2: Carbonic anhydrase 2 (CA2, Homo sapiens, UniProt P00918)
Sequence of UniProt P13569 (whole entry, unmodified, looked up): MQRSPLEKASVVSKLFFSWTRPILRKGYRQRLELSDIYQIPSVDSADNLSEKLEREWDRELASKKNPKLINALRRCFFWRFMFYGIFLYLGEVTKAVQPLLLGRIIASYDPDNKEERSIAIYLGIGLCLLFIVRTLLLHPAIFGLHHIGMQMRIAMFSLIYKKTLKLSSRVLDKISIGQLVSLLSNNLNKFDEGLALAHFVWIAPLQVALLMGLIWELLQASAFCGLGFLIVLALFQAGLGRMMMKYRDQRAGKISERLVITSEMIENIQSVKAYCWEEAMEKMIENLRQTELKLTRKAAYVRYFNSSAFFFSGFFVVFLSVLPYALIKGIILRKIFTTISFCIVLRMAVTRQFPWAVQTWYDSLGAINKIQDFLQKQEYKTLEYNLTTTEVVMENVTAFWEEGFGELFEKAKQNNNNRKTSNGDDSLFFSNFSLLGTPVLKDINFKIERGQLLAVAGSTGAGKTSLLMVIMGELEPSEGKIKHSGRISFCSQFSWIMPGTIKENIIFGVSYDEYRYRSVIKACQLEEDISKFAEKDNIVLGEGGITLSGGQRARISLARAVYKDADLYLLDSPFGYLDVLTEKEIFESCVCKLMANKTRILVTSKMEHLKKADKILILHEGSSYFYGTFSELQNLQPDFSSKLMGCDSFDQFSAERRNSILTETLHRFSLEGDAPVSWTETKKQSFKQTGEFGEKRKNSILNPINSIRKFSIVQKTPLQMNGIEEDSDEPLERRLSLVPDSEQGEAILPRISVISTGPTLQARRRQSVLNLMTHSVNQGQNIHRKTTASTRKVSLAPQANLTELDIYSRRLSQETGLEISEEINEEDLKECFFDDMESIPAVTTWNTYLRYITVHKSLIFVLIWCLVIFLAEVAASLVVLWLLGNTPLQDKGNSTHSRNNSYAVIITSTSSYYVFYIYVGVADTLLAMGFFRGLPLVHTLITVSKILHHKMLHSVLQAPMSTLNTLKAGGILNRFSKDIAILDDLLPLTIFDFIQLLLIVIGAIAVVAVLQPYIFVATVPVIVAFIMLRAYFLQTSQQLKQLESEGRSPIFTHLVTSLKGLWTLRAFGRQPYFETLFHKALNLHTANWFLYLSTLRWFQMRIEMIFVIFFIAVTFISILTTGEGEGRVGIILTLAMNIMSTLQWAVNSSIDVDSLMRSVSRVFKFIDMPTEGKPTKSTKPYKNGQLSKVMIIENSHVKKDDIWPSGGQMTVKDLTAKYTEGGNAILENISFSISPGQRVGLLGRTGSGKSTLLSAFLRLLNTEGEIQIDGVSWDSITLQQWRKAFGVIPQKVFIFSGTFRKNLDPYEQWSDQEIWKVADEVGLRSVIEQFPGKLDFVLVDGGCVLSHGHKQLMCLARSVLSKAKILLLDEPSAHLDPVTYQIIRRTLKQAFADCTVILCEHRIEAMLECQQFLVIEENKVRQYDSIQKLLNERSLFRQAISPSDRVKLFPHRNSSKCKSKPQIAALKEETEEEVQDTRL
Sequence of UniProt P51449 (whole entry, looked up): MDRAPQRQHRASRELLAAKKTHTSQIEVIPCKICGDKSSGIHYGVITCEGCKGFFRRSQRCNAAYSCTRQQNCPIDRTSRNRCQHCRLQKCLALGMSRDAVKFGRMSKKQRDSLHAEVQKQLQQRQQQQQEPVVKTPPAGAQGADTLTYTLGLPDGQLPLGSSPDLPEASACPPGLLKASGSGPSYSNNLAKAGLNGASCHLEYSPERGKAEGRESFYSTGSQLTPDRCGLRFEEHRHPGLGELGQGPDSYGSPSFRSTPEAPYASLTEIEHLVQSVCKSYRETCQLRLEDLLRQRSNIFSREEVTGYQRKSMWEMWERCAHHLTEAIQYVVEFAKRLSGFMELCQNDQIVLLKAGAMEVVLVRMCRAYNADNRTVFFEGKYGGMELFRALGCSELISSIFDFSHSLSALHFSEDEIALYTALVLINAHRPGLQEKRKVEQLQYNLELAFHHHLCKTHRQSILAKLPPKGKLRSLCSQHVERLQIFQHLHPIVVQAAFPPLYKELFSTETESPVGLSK
Sequence of UniProt O43570 (whole entry, looked up): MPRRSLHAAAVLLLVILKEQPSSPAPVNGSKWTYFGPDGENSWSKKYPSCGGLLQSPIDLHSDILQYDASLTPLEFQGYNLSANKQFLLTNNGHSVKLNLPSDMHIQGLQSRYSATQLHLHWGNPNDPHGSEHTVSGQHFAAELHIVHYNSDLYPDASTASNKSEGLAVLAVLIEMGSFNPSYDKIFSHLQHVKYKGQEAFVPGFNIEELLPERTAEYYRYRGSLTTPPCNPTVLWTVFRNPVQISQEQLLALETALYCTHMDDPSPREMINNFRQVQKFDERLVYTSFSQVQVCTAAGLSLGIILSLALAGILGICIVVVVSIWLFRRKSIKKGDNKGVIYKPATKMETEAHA
Sequence of UniProt P30680 (whole entry, looked up): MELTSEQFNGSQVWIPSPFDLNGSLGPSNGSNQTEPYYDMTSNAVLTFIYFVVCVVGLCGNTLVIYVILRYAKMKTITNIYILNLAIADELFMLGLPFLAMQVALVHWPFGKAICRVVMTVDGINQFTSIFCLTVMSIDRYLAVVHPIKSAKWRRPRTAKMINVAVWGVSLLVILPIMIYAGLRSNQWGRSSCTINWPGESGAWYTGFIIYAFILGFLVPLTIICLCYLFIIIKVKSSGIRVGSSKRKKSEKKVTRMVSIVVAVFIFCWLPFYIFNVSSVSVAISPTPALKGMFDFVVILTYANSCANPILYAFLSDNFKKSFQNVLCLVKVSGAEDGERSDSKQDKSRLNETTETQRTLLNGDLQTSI
Sequence of UniProt Q8CJH3 (whole entry, looked up): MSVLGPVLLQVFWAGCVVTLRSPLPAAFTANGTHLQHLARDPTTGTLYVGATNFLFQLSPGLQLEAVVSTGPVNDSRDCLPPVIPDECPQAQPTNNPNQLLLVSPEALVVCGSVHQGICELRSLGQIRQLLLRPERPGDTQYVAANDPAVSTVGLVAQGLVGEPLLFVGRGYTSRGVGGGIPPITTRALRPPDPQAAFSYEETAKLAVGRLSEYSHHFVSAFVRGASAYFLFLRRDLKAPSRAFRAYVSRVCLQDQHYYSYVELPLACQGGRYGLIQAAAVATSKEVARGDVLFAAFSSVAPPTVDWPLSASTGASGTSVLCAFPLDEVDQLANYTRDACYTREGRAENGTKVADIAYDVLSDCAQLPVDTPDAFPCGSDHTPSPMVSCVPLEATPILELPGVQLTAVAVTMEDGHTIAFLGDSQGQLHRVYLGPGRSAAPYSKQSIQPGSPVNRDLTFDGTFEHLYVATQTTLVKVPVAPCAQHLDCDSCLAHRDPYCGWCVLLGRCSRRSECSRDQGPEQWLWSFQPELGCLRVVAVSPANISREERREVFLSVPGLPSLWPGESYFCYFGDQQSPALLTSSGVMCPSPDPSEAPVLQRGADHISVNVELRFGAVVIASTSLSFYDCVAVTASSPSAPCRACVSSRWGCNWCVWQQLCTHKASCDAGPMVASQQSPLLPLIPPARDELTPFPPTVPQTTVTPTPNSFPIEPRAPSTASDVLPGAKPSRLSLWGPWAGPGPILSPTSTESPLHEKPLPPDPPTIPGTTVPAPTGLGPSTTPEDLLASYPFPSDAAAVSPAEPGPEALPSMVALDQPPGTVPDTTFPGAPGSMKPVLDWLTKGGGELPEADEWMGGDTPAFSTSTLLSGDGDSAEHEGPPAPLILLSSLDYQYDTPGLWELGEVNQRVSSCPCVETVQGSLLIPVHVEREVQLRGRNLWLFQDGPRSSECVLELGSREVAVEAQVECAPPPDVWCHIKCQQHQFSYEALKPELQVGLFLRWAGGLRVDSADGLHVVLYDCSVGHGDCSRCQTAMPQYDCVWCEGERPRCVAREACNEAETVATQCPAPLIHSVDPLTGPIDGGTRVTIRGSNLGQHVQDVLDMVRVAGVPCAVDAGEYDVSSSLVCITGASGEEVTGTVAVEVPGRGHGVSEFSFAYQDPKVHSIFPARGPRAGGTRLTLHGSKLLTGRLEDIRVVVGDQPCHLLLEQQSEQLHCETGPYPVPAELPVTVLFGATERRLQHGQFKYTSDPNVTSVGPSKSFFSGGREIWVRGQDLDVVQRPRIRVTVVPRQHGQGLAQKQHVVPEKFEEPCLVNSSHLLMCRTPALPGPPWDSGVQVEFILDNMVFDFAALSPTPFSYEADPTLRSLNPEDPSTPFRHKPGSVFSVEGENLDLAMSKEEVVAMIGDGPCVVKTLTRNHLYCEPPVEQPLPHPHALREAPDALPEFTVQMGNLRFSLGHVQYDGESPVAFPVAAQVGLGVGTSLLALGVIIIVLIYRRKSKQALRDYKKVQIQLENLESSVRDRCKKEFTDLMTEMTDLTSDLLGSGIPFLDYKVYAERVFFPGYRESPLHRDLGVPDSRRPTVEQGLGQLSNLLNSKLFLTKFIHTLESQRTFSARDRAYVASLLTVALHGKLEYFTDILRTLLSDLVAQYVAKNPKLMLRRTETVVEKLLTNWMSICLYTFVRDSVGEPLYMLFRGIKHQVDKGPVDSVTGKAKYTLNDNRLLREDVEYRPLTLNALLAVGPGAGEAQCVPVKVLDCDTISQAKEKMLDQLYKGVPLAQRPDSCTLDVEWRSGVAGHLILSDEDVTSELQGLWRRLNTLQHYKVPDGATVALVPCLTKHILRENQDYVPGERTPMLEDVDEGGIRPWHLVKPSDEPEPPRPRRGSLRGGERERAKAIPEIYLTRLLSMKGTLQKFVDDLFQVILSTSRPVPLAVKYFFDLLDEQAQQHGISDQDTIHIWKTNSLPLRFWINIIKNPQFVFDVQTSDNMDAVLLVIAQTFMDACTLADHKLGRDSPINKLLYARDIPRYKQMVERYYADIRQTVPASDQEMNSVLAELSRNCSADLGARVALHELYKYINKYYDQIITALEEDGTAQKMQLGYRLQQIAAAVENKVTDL

Structure (SMILES)	target	assay	test system	conditions	scale	Kd
C[C@H](NC(=O)[C@@H]1CCCN1C(=O)[C@@H]1CCCN1C(=O)[C@H](C)NC(=O)[C@@H](NC(=O)[C@H](CO)NC(=O)CNC(=O)[C@@H]1CCCN1C(=O)[C@H](C)NC(=O)[C@@H]1CCCN1C(=O)[C@@H](N)CCCNC(=N)N)[C@@H](C)O)C(=O)N[C@@H](Cc1c[nH]cn1)C(=O)NCC(=O)O	14 A monoclonal antibody	SPR				0.234 µM
O=P(O)(O)O[C@@H]1[C@H](O)[C@H](O)[C@@H](OP(=O)(O)O)[C@H](OP(=O)(O)O)[C@H]1O	IP3 receptor					0.013 µM
CCc1nc2ccccc2cc1C(=O)N1CCC[C@H]1C(=O)N[C@H](CSSC[C@@H](NC(=O)[C@@H]1CCCN1C(=O)c1cc2ccccc2nc1CC)C(=O)N[C@@H](CCCCN)C(=O)NCCCN)C(=O)N[C@@H](CCCCN)C(=O)NCCCN	CUG repeat RNA	filter binding				6.7 µM
OC[C@H]1OC(O)[C@H](O)[C@@H](O)[C@H]1O (stereo partly drawn)	LecA lectin, Pseudomonas aeruginosa					87.5 µM
O=C(Nc1cccc(Br)c1)Nc1cc(Oc2ccc3nc(NC(=O)C4CC4)sc3c2)ccc1F	RIPK3 (Homo sapiens, UniProt Q9Y572)					0.08 µM
NS(=O)(=O)c1c(F)c(F)c(S(=O)(=O)CCO)c(NC2CCCCCCCCCCC2)c1F	CA2	thermal shift		pH 7.0, 37 °C		0.042 µM
CC[C@H](C)[C@H](NC(=O)[C@H](N)Cc1ccc(O)cc1)C(=O)N[C@H]1CSSC[C@@H](C(=O)N(C)[C@H](C(N)=O)[C@@H](C)CC)NC(=O)[C@H](CCCNC(=N)N)NC(=O)[C@H](Cc2c[nH]cn2)NC(=O)[C@H](C)NC(=O)CN(C)C(=O)[C@H](Cc2c[nH]c3ccccc23)NC(=O)[C@H](CC(=O)O)NC(=O)[C@H](CCC(N)=O)NC(=O)[C@H](Cc2cn(C)c3ccccc23)NC(=O)[C@H](C(C)C)NC1=O	complement C3 and C3b (human, non-human primate)	binding				0.0005 µM
CC(C)C1=CC23CCC4C(C)(C(=O)O)CCCC4(C)C2CC1C(C(=O)O)C3C(=O)O (stereo not drawn)	DBD-F	fluorescence anisotropy				18 µM and 18.3 µM
O=C(O)c1cc([N+](=O)[O-])ccc1NCCCc1ccccc1	Cystic fibrosis transmembrane conductance regulator, pore-binding site (CFTR, Homo sapiens, UniProt P13569, K1250A)	pore binding		0 mV		150 µM
NS(=O)(=O)c1c(F)c(F)c(S(=O)(=O)CCc2ccccc2)c(N2CCOCC2)c1F	CA2	thermal shift		pH 7.0, 37 °C		0.0012 µM
COc1ccc2nc3cc(Cl)ccc3c(NCCCCNc3nc(N)nc(N)n3)c2c1	RNA repeat r(CGG)2	binding				> 300 µM
NS(=O)(=O)c1c(F)c(F)c(S(=O)(=O)CCc2ccccc2)c(NC2CCCCCCCCCCC2)c1F	CA12 (Homo sapiens, UniProt O43570)	fluorescent thermal shift		pH 7.0, 37 °C, observed		0.065 µM
Cc1ccc2oc(=O)c(-c3nc4cnccc4[nH]3)cc2c1	Bifunctional arginine demethylase and lysyl-hydroxylase JMJD6 (Homo sapiens, UniProt Q6NYC1)	binding, surface plasmon resonance				3.31 µM
CC[C@H](C)[C@@H]1NC(=O)[C@H](CCC(N)=O)NC(=O)CNC(=O)[C@H]([C@@H](C)O)NC(=O)[C@H](Cc2c[nH]c3ccccc23)NC(=O)[C@H](CCCNC(=N)N)NC(=O)[C@H](C)NC(=O)[C@H](C(C)C)NC(=O)[C@H](CCCNC(=N)N)NC(=O)[C@@H]2CCCN2C(=O)[C@H](CCCNC(=N)N)NC(=O)[C@@H](Cc2c[nH]c3ccccc23)NC(=O)CSC[C@@H](C(=O)N[C@@H](CO)C(N)=O)NC(=O)[C@H](Cc2ccc(O)cc2)NC(=O)[C@H]([C@@H](C)CC)NC1=O	Plexin-B1 (Plxnb1, Mus musculus, UniProt Q8CJH3)				no detectable affinity	> 1 µM
O=C(C=CN1C2CCC1c1ncnc(NC3CC3)c1C2)c1ccccc1O (stereo not drawn)	SMARCA4	binding				0.053 µM
CC(=O)O[C@H]1C(=O)[C@]2(C)[C@@H](OC(=O)CCCNC(=O)c3cc4cc(F)c(O)c(F)c4oc3=O)C[C@H]3OC[C@@]3(OC(C)=O)[C@H]2[C@H](OC(=O)c2ccccc2)[C@]2(O)C[C@H](OC(=O)[C@H](O)[C@@H](NC(=O)c3ccccc3)c3ccccc3)C(C)=C1C2(C)C	cross-linked microtubules	binding		room temperature		0.265 µM
CC(=O)NCCCC[C@H](NC(=O)CNC(=O)CNC(=O)[C@@H](NC(=O)[C@H](CO)NC(=O)[C@H](CCCCN)NC(=O)[C@H](CCCNC(=N)N)NC(=O)[C@H](C)NC(=O)[C@@H](NC(=O)[C@H](CCC(N)=O)NC(=O)[C@H](CCCCN)NC(=O)[C@@H](NC(=O)[C@H](CCCNC(=N)N)NC(=O)[C@H](C)N)[C@@H](C)O)[C@@H](C)O)[C@@H](C)O)C(=O)N[C@@H](C)C(=O)N1CCC[C@H]1C(=O)N[C@@H](CCCNC(=N)N)C(=O)N[C@@H](CCCCN)C(=O)N[C@@H](CCC(N)=O)C(=O)O	DPF3 double PHD finger domain	binding				0.5 µM
NS(=O)(=O)c1c(F)c(F)c([S+]([O-])CCO)c(F)c1NC1CCCCCCC1 (stereo not drawn)	CA2	thermal shift		pH 7.0, 37 °C		2.2 µM
CCn1c2ccccc2c2cc(CNC)ccc21	TP53 (Homo sapiens, UniProt P04637, M133L/N239Y/N268D/V203A/Y220C)	binding, ITC				~125 µM
NS(=O)(=O)c1c(F)c(F)c(S(=O)(=O)CCc2ccccc2)c(N[C@H]2CCc3ccccc32)c1F	CA2	thermal shift		pH 7.0, 37 °C		0.0029 µM
N=C(N)NCCC[C@H](NC(=O)[C@H](CSSC[C@H](NC(=O)[C@H](Cc1ccc(O)cc1)NC(=O)[C@H](Cc1c[nH]c2ccccc12)NC(=O)[C@H](CCCNC(=N)N)NC(=O)[C@@H](N)Cc1c[nH]c2ccccc12)C(=O)N[C@@H](CCCNC(=N)N)C(N)=O)NC(=O)[C@H](Cc1ccc(O)cc1)NC(=O)[C@H](Cc1c[nH]c2ccccc12)NC(=O)[C@H](CCCNC(=N)N)NC(=O)[C@@H](N)Cc1c[nH]c2ccccc12)C(N)=O (single isomer, unassigned)	Holliday junction DNA	binding, EMSA		dimer equivalents		0.014 µM
NS(=O)(=O)c1c(F)c(F)c(NCCc2ccc(O)cc2)c(F)c1NC1CCCCCCC1	CA2	thermal shift		pH 7.0, 37 °C		10 µM
C[C@@H](O)[C@H](NC(=O)[C@@H]1CSSC[C@H](NC(=O)[C@@H](Cc2ccccc2)NC(=O)CN2CCCN3CCN(CCCN(CC(=O)O)CC3)CC2)C(=O)N[C@@H](Cc2ccc(O)cc2)C(=O)N[C@H](Cc2c[nH]c3ccccc23)C(=O)N[C@@H](CCCCN)C(=O)N[C@@H]([C@@H](C)O)C(=O)N1)C(=O)O [copper-64 labelled]	Somatostatin receptor type 2 (Rattus norvegicus, UniProt P30680)	binding	AR-42J cell membranes			0.0015 µM
NS(=O)(=O)c1cc(C(=O)NCCCC(=O)O)c(S(=O)(=O)c2ccccc2)cc1Cl	CA2	thermal shift		pH 7.0, 37 °C		0.015 µM
C[C@H](CCC(=O)O)[C@H]1CC[C@H]2[C@@H]3CC[C@@H]4CC(=O)CC[C@]4(C)[C@H]3CC[C@]12C	RORC (Homo sapiens, UniProt P51449)	binding				~1.1 µM
CC(C)(C)Nc1c(F)c(S(N)(=O)=O)c(F)c(F)c1S(=O)(=O)CCc1ccccc1	CA2	thermal shift		pH 7.0, 37 °C		0.0017 µM
O=C(O)CCC(=O)C(=O)O	EIC domain	binding				2200 ± 200 µM
